Experimental data pooled from the literature.
Protocols differ between the studies behind these lines. ± gives the spread as reported.

`CCn1nc2c(c1Nc1nc(-c3ccc(-n4cnc(C)c4)c(OC)n3)cs1)CCCC2` has an IC50 of 0.103 ± 0.004 µM (CHO APPwt/PS1 M146L; Aβ40 production).
`C=C(C)C(=O)Nc1ccc(-c2c(-c3ccc(Oc4cccc(C)n4)cc3)c3c(N)ncnc3n2C)cc1` gave an IC50 of 0.0036 µM (SNU-16; cell growth or viability, ATP luminescence; 96 h).
`Cc1c(C(=O)/C=C/c2cccs2)nnn1-c1c(Cl)cc(Cl)cc1Cl` has an IC50 of 32.5 µM (THLE-2; cell growth or viability, MTT).
`Cc1cc(C#N)cc(C)c1Oc1cc(Nc2ccc(C#N)cn2)nc2ccncc12` has an IC50 of 106 ± 20.9 µM (MOLT-3; 48 h).
`C=C[CH2][Pd-]([Cl])[Cl].Cc1cc(C)c(-n2c[n+](-c3c(C)cc(C)cc3C)c3c2-c2cccc4cccc-3c24)c(C)c1` gave an IC50 of 1.8 ± 0.4 µM (C13 cisplatin-resistant; cell viability, MTT; 72 h).
`CC1CC(=O)N(CCCCCCN)N=C1c1ccc(NC(=O)N2Cc3ccncc3C2)cc1` (stereo not drawn) has an IC50 of 0.066 µM (A549-C4.4a; cell viability, CellTiter-Glo).
For `CC(=O)[O-].O.O.O.O.[Mn+2].[O-]c1ccc(Br)cc1C=NCCN1CCOCC1`, the IC50 was 61.1 µg/mL (NHDF normal fibroblasts; cell viability, MTT; 72 h).
With `CCn1c[n+](CC)c2ccccc21` the IC50 was 57 ± 8.9 µM (RC-124 kidney epithelial; cell proliferation, crystal violet staining; 96 h).
`C(=C/c1ccccc1)/c1ccccc1` has an IC50 of 25 µM (MOLT-3; cell growth or viability, ATP luminescence; 24 h).
The IC50 of `C[C@@H]1NC(=O)[C@H](CCC(=O)O)NC(=O)[C@@H](Cc2ccccc2)NC(=O)[C@H](CCC(=O)O)NC(=O)[C@H](CC(N)=O)NC1=O` is reported as 43 to 340 µM (WM-115; WM-115 cell adhesion, inhibitor; 1 h, added: immobilized CagL RGA mutant).
`C=C1C(=O)[C@@]23CC[C@@H]4C(C)(C)CCC[C@@]4(COC(C)=O)[C@@H]2[C@@H](O)C[C@@H]1C3` (single isomer, unassigned) has an IC50 of 8.8 µM (786-0; cell growth or viability, MTT).
With `C=CC(=O)N1CCCC(n2c(=O)c3ncccc3n(Cc3ccc(Oc4ccccc4)cc3)c2=O)C1` (stereo not drawn) the IC50 was 0.3 to 4.6 µM (primary ALL cells; cell viability; 72 h, sensitive samples, MSC co-culture).
For `Cn1cc(-c2cc(N3CCCCS3(=O)=O)ccc2N[C@H]2CC[C@H](C)CC2)c2cc[nH]c2c1=O` (stereo in doubt), the IC50 was 0.00039 µM (Light2 cells expressing SMO^WT; GLI-luciferase reporter, inhibitor, refers to: SMO^WT).
For `C=CC(OC(C)=O)c1ccc(OC)cc1` (stereo not drawn), the IC50 was > 50 µM (RT-112; MTT; 24 h).
The IC50 of `CCCCCCCCC=CCCCCCCCC(=O)OCC1OC(n2ccc(N)nc2=O)C(F)(F)C1O` (stereo not drawn) is reported as 0.004 ± 0.0016 µM (THX; cell growth).
`Cc1c(C)n(-c2c(C(C)C)cccc2C(C)C)c(=[Se])n1-c1c(C(C)C)cccc1C(C)C.[Cl][Au]` gave an IC50 of 1.9 ± 0.1 µM (LoVo MDR; MTT; 72 h).
With `CC(=O)c1cnc(N)nc1N1CC[C@H]1c1nn2ccc(Cl)c2c(=O)n1-c1ccccc1` the IC50 was 0.018 µM (human CD4 T cells; Th2 differentiation, refers to: IL-13).
`O=[N+]([O-])c1ccc(NC2=N[N+](=Cc3cccs3)[Pd-]([Cl])([Cl])[S]2)cc1` has an IC50 of > 100 µM (CRFK; cell growth or viability).
For `[Cl][Au-][c]1n(-c2c(C(c3ccccc3)c3ccccc3)cc(C(c3ccccc3)c3ccccc3)cc2C(c2ccccc2)c2ccccc2)c2c([n+]1-c1c(C(c3ccccc3)c3ccccc3)cc(C(c3ccccc3)c3ccccc3)cc1C(c1ccccc1)c1ccccc1)-c1cccc3cccc-2c13`, the IC50 was > 50 µM (C13 cisplatin-resistant; cell viability, MTT; 72 h).
With `O=[N+]([O-])c1ccc(NC2=N[N+](=Cc3cccs3)[Pt-]([Cl])([Cl])[S]2)cc1` the IC50 was 26 µM (CEM human lymphocytes; cell proliferation).
The IC50 of `Cc1c(-c2c3c(N)n[nH]c(=O)c3nn2-c2ccc(NC(=O)/C=C/CN(C)C)cc2)oc2ccc(Br)cc12` is reported as 0.0082 µM (SNU-16; cell growth or viability).
For `C=CCc1ccc(O)c(-c2cc(CC=C)ccc2OCCCCCCCCCC[P+](c2ccccc2)(c2ccccc2)c2ccccc2)c1`, the IC50 was 0.3 µM (UACC-62; cell growth, IncuCyte confluence).
The IC50 of `Cc1ccc(NC(=O)c2c(C)oc3ccc(O)c(CN4CCCCCC4)c23)cc1` is reported as 5.8 µM (L-363; cell growth or viability, MTS; 72 h).
With `CN1CCCNC(=O)CCC(=O)NCCCN(C)CCCNc2cccc3c2C(=O)c2cccc(c2C3=O)NCCC1` the IC50 was > 20 µM (SAS; cell growth or viability, CCK-8; 48 h).
The IC50 of `O=C1C(Cl)=C(Cl)C(=O)c2c(O)ccc(O)c21` is reported as 0.27 µM (MOLT-3; cell growth or viability, XTT; 48 h).
For `C=CCc1cc(OC)c(OC(C)=O)c(OC)c1`, the IC50 was > 50 µM (EJ-28; MTT; 24 h).
For `[Cl][Pd-2]1([Cl])[N+](=P(c2ccccc2)(c2ccccc2)C2C=CC=C2)Cc2cccc[n+]21.[Cl][Pd-2]1([Cl])[N+](=P(c2ccccc2)(c2ccccc2)C2C=CC=C2)Cc2cccc[n+]21.[Fe+2]`, the IC50 was 1.8 ± 0.7 µM (A2780cisR (cisplatin-resistant); cell growth, MTT; 74 h, 1% DMSO).
The IC50 of `C=CC(=O)Nc1ccc(-c2c(-c3ccc(OC)cc3)c3c(N)ncnc3n2C)cc1` is reported as 0.022 µM (SNU-16; cell growth or viability, ATP luminescence; 96 h).
`COc1cc(-c2cc(=O)c3c(O)cc(OC4OC(COC5OC(C)C(O)C(O)C5O)C(O)C(O)C4O)cc3o2)ccc1O` (stereo not drawn) gave an IC50 of > 100 µM (AML12; cell growth or viability, resazurin; 72 h).
`COc1ccc2c(c1)c(C)c1c(-c3ccccc3)c(S(=O)(=O)c3ccc(C)cc3)c3ccccc3n12` has an IC50 of > 100 µM (LS174T; cell growth or viability, MTT; 72 h).
The IC50 of `Cc1c(C)c(C)[c-](C)c1C.OCc1c[c-]c(-c2ccccn2)cc1.[Cl-].[Ir+3]` is reported as > 50 µM (A2780 cells; cell growth, SRB; 24 h exposure, 72 h recovery).
For `Cc1cc(NC(=O)c2cccc(N)c2)ccc1Nc1nccc(-c2cccnc2)n1`, the IC50 was 2.13 ± 0.135 µM (SH-SY5Y MKK7-ACT; c-Jun phosphorylation, inhibitor, HTRF, refers to: phospho-c-Jun Ser63; 6 h, added: doxycycline).
With `CC1=CC(C)=[N+]2C1=C(CO)c1c(C)cc(C)n1[B-]2(C)C` the IC50 was 1.31 ± 0.1 µM (RPE-1; cell viability, resazurin; 0.1667 h, 510 nm irradiation 2.44 J/cm2).
With `N=C(N)NCCC[C@@H]1NC(=O)[C@H](CCCCN)NC(=O)[C@@H](Cc2ccc(O)cc2)NC(=O)[C@H](CC(=O)O)NC(=O)CNC1=O` the IC50 was 77 ± 3.7 µM (U87; cytotoxicity, MTT; 48 h).
`CC(C)=CCC1=C([O-])C(=O)c2ccccc2C1=O.CC(C)=CCC1=C([O-])C(=O)c2ccccc2C1=O.[Cu+2].c1ccc(-c2ccccn2)nc1` gave an IC50 of 36 ± 2.8 µM (MRC5 normal fibroblasts; cell viability, MTT; 24 h).
With `Cc1cc(NC(=O)c2cccc(NC(=O)/C(C#N)=C/C(C)(C)C)c2)ccc1Nc1nccc(-c2cccnc2)n1` the IC50 was 4.97 ± 0.62 µM (SH-SY5Y MKK7-ACT; c-Jun phosphorylation, inhibitor, HTRF, refers to: phospho-c-Jun Ser63; 6 h, added: doxycycline).
The IC50 of `COc1cc(OC)c(F)c(/C=C/c2cnc3ccn(S(=O)(=O)c4cn(CCF)cn4)c3n2)c1F` is reported as 0.0748 µM (SNU-16; cell growth or viability).
The IC50 of `S=c1n(-c2ccccc2)c2c3ccccc3nc3[n+]2[n]1[Ir-3]12([S]3)([c]3ccc4ccccc4c3-c3sc4ccccc4[n+]31)[c]1ccc3ccccc3c1-c1sc3ccccc3[n+]12` is reported as > 25 µM (MRC9; cell viability, MTT; irradiation 450 nm, 15.5 mW/cm^2, 15 min).
With `[Cl][Pd-]1([Cl])[S]C(Nc2ccccc2)=N[N+]1=Cc1cccs1` the IC50 was 91.9 µM (CRFK; cell growth or viability).
With `CC1=C2[O][Ru-]([Cl])[O+]=C2C=CN1CCCCCCCCCCCCN1C=CC2=[O+][Ru-]([Cl])[O]C2=C1C.Cc1ccc(C(C)C)cc1.Cc1ccc(C(C)C)cc1` the IC50 was 2.5 ± 1.9 µM (SISO-oxo oxoplatin-resistant; crystal violet; 96 h).
`O=C1NCC(Cc2ccccc2)N(CC2CCCN2CC(CC2CCCCC2)N2CC(Cc3ccc(O)cc3)N(CCc3ccccc3)C(=O)C2=O)C1=O` (stereo not drawn) has an IC50 of > 100 µM (BJ skin fibroblasts; viability; 72 h).
The IC50 of `CC1=CC(C)=[N+]2C1=C(CO)c1c(C)cc(C)n1[B-]2(F)F` is reported as > 100 µM (RPE-1; cell growth or viability, resazurin; dark).
`S=c1n(-c2ccccc2)c2c3ccccc3nc3[n+]2[n]1[Ir-3]12([S]3)([c]3ccccc3-c3cccc[n+]31)[c]1ccccc1-c1cccc[n+]12` gave an IC50 of > 50 µM (MRC9; cell viability, MTT; dark).
With `CC(C)(C)OC(=O)C(NCc1ccc(CCC(=O)NO)nc1)C1CCCCC1` (stereo not drawn) the IC50 was > 10 µM (human CD14+ monocytes; M-CSF differentiation; 4 h then washout, added: M-CSF).
`CCCCCCCCCCCCCCCCCC(=O)N[C@@H](CCCNC(=N)N)C(=O)N[C@@H](CCCNC(=N)N)C(=O)N[C@@H](CCCNC(=N)N)C(=O)N[C@@H](CCCNC(=N)N)C(=O)N[C@@H](CCCNC(=N)N)C(N)=O` gave an IC50 of > 150 µg/mL (HCEC; cytotoxicity).
`CN(C)C1=[S+][Au-2]2([S]1)[c]1ccccc1-c1cccc[n+]12.F[P-](F)(F)(F)(F)F` (stereo not drawn) has an IC50 of 0.013 ± 0.02 µM (BT-333 glioblastoma; MTT; 72 h).
For `Clc1ccc(C=[N+]2N=C(Nc3ccccc3)[S][Pt-]2([Cl])[Cl])s1`, the IC50 was 15.6 µM (CRFK; cell growth or viability).
`CNC(=O)C1CCN(c2ccccc2NC(=O)c2ccc(-c3cc(O)ccc3C)c(C)n2)CC1` gave an IC50 of 0.456 µM (12Z; cell growth or viability, ATP luminescence; 72 h).
`CCCC(CCC)C(=O)[O][Pt]([NH2])([NH2])([Cl])([Cl])[O]C(=O)C(Cl)Cl` gave an IC50 of 1.39 ± 0.37 µM (C13 cisplatin-resistant; cytotoxicity, MTT; 72 h).
`[Fe+2].c1ccc(P(=NCc2ccccn2)(c2ccccc2)[c-]2cccc2)cc1.c1ccc(P(=NCc2ccccn2)(c2ccccc2)[c-]2cccc2)cc1` has an IC50 of 13.1 ± 4 µM (A2780cisR (cisplatin-resistant); cell growth, MTT; 74 h, 1% DMSO).
The IC50 of `NS(=O)(=O)c1ccc(NC(=O)NN[C@@H]2O[C@H](CO)[C@@H](O)[C@H]2O)cc1` is reported as > 100 µM (HCEC; cell growth or viability, MTT; 96 h).

A few entries again:
The IC50 of `Cc1c(-c2c3c(N)n[nH]c(=O)c3nn2-c2ccc(NC(=O)/C=C/CN(C)C)cc2)oc2ccc(Br)cc12` is reported as 0.0082 µM (SNU-16; cell growth or viability).
For `C=CCc1ccc(O)c(-c2cc(CC=C)ccc2OCCCCCCCCCC[P+](c2ccccc2)(c2ccccc2)c2ccccc2)c1`, the IC50 was 0.3 µM (UACC-62; cell growth, IncuCyte confluence).
The IC50 of `Cc1ccc(NC(=O)c2c(C)oc3ccc(O)c(CN4CCCCCC4)c23)cc1` is reported as 5.8 µM (L-363; cell growth or viability, MTS; 72 h).
With `CN1CCCNC(=O)CCC(=O)NCCCN(C)CCCNc2cccc3c2C(=O)c2cccc(c2C3=O)NCCC1` the IC50 was > 20 µM (SAS; cell growth or viability, CCK-8; 48 h).
The IC50 of `O=C1C(Cl)=C(Cl)C(=O)c2c(O)ccc(O)c21` is reported as 0.27 µM (MOLT-3; cell growth or viability, XTT; 48 h).
For `C=CCc1cc(OC)c(OC(C)=O)c(OC)c1`, the IC50 was > 50 µM (EJ-28; MTT; 24 h).
